# Measurements from different studies.
# Numbered parts are unrelated; each lists some results of a single study. Positions count from the first letter of the parent shown.

# Set 1
# Target: RING finger protein unkempt homolog, zinc fingers 1-6, GST-SBP tag (UNK, Homo sapiens, UniProt Q9C0B0, residues 30-357)
# Technique: RNA Bind-n-Seq
# Molecule type: RNA
# Medium: in vitro
# Concentration: not given
# Setting: RNA with constant flanks, human and mouse sites, ends assumed
# Baseline: input RNA pool
# Direction: higher = stronger binding
# All sequences stand within: GGGAGUUCUACAGUCCGACGAUC … CAACAGAGGAUUGAGCAUCA
# Residues (chain): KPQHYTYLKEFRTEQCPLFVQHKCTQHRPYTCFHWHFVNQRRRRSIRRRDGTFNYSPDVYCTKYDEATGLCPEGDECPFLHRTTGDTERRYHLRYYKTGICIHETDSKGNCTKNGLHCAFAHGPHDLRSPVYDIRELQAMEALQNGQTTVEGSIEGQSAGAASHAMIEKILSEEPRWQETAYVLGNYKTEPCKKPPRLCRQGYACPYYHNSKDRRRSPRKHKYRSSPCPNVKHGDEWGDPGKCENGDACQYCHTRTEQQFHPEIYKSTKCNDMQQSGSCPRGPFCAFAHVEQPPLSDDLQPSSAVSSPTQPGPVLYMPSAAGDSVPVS
Sequence,bound/input enrichment [ratio]
CACGCGUCCAUCCAGAUGAACGUGGCCGAGGUUGAUAGGACCACAGGCCGGUUUAAUGGCCAGUUUAAAACCUAUGGCAUCUGCGGGGCCAUUCGCAGGAUGGGCGAGUCAGAUGAUUCU,0.0477
ACGCAGUGUCUGCUGGGGCUGCGCACGUUCGUGGCCUUCGCCGCCAAGCUCUGGAGCUUCUUUAUUUACCUUUUGCGGAGGCAGAUCCGCACGGUAAUUCAGUAUCAGACUGUUCGAUAU,0.0644
AAGGCAACAGAUGAAACGGGUGUAUCUGCUGUUCAGUUUGGAAACUCUUCUACAUCAGUAUUAGCUACAUUAGCUGCCUUAGCUGAAGCAUCUGCUCCAUUGUCCAAUUCUUCAGAAACU,0.291
AAUUUUAACCAAGAAUCAGAAGGUAGAAAUUCAGGACCAUGGUUGUCUUCUUCACUUAGAAAUAGAUGCACACCUUUGUUCUCGAGAAGGAGGCGAGAGGGAAGGGAUGAGUCUUCAAGA,3.18
CUAGGUGUGAGAGCUCUGGGGCACUGUGGGUGCGGUGAUCUGCAGGUAAAGCCCCACACCAUAGACAGUGCUCUGUAGGAAUAUAUGAAGGAUAUUUGCUUCUUGUGAGUCCAUUUCUUA,0.556
GAGAUCUUUAUGUCUGAAGCUGGGAAAGUAAACCAGAAGAUUAAAGUAUGGUUUAGUGAUUACUUCAACAUCAGUGAUACAAUUGCCAUAAUUUCUUUCUUCAUUGGAUUUGGACUAAGA,0.236
ACGCUGCCCUCGGACAAGCUGAGCAAGAUUCAGACCCUCAAACUGGCGGCCAGGUACAUCGACUUCCUGUACCAGGUCCUGCAGAGCGACGAGCUGGACUCCAAGAUGGCAAGCUGCAGC,0.184
GCUUAUAAAGCUGCUAGUGAUAUUGCAAUGACAGAACUUCCACCAACGCAUCCUAUUCGCUUAGGUCUUGCUCUCAAUUUUUCCGUAUUCUACUACGAAAUUCUUAAUUCCCCUGACCGU,0.246
UCAGAAGAAGAAUGUACUACUAGUUAUUUAACAUUAUGCAAUGAAUAUGGGCAAGAAAAGAUUGAACCAGGGUCUUUGAAUGAGGAGCCCUUCAUGAAGACUGAAGGGAAUGGUGUUGAU,6.13
UUAUUCCCUUCAUCAUUUACUGAAAAUUGUGAAUUACUGUCAUGCUCAGGGGAGAAUAGAACUAUGGUGCAUUCUCUUAAUAGCACUGCUGAUGAAAGUGGACUAAAUAAACUUAAAAUU,0.105
CAUCUUAGGUCAUCUUCUGUAGAAGAUGUUAAACUAAUUAUAAGCGAGGGGAGACCUACCAUAGAAGUUCGAAGAUGUAGCAUGCCUUCUGUCAUUUGUGAACAUACCAAACAAUUCCAA,1.12

# Set 2
# Target: RNA binding protein fox-1 homolog 2, RRM domain, GST-SBP tag (RBFOX2, Homo sapiens, UniProt O43251-10, residues 100-194)
# Technique: RNA Bind-n-Seq
# Molecule type: RNA
# Medium: in vitro
# Concentration: 365 nM
# Setting: natural RNA segment, single round, ends assumed
# Baseline: no-protein control
# Direction: higher = stronger binding
# All sequences stand within: GGGAGUUCUACAGUCCGACGAUC … UGGAAUUCUCGGGUGCCAA
# Construct (chain): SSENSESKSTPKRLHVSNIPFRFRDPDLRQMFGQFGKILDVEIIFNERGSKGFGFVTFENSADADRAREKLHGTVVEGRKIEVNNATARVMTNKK
Sequence,RBNS enrichment (R)
UACUGUAUUAGUCCGUUUUCACGCUGCUGAUAAAGACAUACCCGAGACUGGGAAGAAAAAGUGGUUUAAUUGGACUUAAAGUUCCACAUGGCUGGGGAGGCCUCAGAAUC,0.632
GUAAGAUAGUUAAGUUAUUCAAAGAGUGUUACCCUCCUUGCAAGAGUAACUGAAGCACAUUGGAAAGAUUCUCAAUUUUGUGUUUCCUGUAAAAACAGUGCUCUCUGCUG,0.23
GUAAUCACUUCUGUUUUUUUCUUUUUCAUUACUUUGCUACCACCUCCAUCCCAUGACAUUAUACUGUGAAGUGUAAGAGGACGGGGUUUUUUUAAACUUGGUAGAAAUGU,0.603
UAGUCACCUGUCACCAGGGAUUCUACUACAGUCUGCGCGCCACAGAUAGUUGCUCACACACCAUUGAGCAAACGUGUCUUGUUCCUUGUAUCUCUUUUCUUCCAGCCCUG,0.317
UAAGUGUUUAUCAUAUAUAUGGGUACUUUGUAAUAUCUAAAAACUUAGAAACGGAAAUGGAAUCCUGCUCACAAAAUCACUUUAAGAUCUUUUCGAAGCUGUUAAUUUUU,0.842
AUAUACUGAUCCUAAAACCAAGGGAAUUAACAUUCCUAAUCCUGCACUAUGAACAGAACCCUGCCCAUGAGAGGCACUUGUAGGUGAAACUCUCUUUUCUUGUUCUUUUU,0.552
CCUUGACCCCUGGGCACCUCCAUCCCCUCCCACCUGUCCCCAGAUCAGUCUCUGGGAUGGAGGCCAGAGAGCUGGUCAGGCUCCCCCAUCUGCCCAGCACGGCCUGCACU,1.44
GGUUUUGUUAUCCUUCGGAAGAACCCCAAUUAUGAUCUCUAGUGACCACCAGGGGCUCUGAACUGCAGCUGAUGUUAUCAGCAGGCCAUGCAUCCUGCUGCCAAGGGUGG,0.609
GCUGAUUUGAUGAUUGAAAUGUGAAAGUGAAGUGGAAGGAAUGAAUGAAGUGUGUUUUUUUUUUCUUUUUUGAGGAAUUAUCAGGGAAGUGAGGAAAUGUUUGGGAGAGG,4.06
UUGAGUCUGGCAUCUUUCCCUCAGCUUAAUGCUUUUGAGUCAUUCAUGAUGUGUGCGUGUGGUUUGUUCCUUCUCCUUGCCGGGAAGUAUUUCAUUGCAUGGGCGUACUA,1.34
CAUGCACACGUGUGCAUUUGUUUGUAUACAUAUAUUUGUCCUUCGUAUAGCAAGUUUUUUGCUCAUCAGCAGAGAGCAACAGAUGUUUUAUUGAGUGAAGCCUUAAAAAG,0.401
AAAGAACUUAGUCAUCCCUUCCACCUCCUACUGUGAAGAACAGACCCUGGGUCCCACACUGAAAUCCCCUCUAGUCACCCAUUCCCACCCCCCAGGGAGCUGCCUCCCAG,0.415

# Set 3
# Target: PABPC1L2, full length, GST fusion (mouse, UniProt A0ABA7IW68)
# Technique: RNAcompete
# Molecule type: RNA
# Medium: in vitro
# Concentration: 20 nM
# Setting: 7-mer, probes averaged, single round
# Baseline: mean of 7-mers
# Direction: higher = stronger binding
# Construct (chain): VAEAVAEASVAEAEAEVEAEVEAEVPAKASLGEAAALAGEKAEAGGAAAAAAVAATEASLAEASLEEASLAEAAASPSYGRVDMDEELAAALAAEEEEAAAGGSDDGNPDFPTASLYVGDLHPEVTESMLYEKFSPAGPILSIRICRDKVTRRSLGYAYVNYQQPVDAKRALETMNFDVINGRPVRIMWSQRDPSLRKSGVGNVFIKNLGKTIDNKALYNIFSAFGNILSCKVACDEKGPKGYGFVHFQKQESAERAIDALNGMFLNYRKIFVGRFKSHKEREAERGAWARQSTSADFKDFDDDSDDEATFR
Sequence,7-mer Z-score
ACAUCCG,-0.186
GUCGUGC,-0.249
CGUUCGA,-0.391
ACAAUAG,0.166
GAGCUUU,-0.307
CGAGAAU,-0.166
UCCAAGC,-0.122
GGGACUA,0.41
AGUCCAA,0.369
AAUGCUG,0.0805
GGUAUCC,-0.211
GAGUUAA,0.017
CACCUUU,-0.289
CCUUGGC,-0.358
CCUGCGG,-0.202
GUUCGCC,-0.402
UCUAUAC,-0.3
AGCUGUG,-0.184
UAACGGU,-0.133
UACAUUU,0.0551
UCGGCUC,-0.409
GUAUGAU,-0.159
CGGGAAC,0.0279
UGAUCAC,-0.157
GUAGUUU,-0.454

# Set 4
# Target: Sal-like protein 4, full length isoform A (SALL4, Homo sapiens, UniProt Q9UJQ4, residues 1-1053)
# Sequence of UniProt Q9UJQ4 (whole entry, looked up): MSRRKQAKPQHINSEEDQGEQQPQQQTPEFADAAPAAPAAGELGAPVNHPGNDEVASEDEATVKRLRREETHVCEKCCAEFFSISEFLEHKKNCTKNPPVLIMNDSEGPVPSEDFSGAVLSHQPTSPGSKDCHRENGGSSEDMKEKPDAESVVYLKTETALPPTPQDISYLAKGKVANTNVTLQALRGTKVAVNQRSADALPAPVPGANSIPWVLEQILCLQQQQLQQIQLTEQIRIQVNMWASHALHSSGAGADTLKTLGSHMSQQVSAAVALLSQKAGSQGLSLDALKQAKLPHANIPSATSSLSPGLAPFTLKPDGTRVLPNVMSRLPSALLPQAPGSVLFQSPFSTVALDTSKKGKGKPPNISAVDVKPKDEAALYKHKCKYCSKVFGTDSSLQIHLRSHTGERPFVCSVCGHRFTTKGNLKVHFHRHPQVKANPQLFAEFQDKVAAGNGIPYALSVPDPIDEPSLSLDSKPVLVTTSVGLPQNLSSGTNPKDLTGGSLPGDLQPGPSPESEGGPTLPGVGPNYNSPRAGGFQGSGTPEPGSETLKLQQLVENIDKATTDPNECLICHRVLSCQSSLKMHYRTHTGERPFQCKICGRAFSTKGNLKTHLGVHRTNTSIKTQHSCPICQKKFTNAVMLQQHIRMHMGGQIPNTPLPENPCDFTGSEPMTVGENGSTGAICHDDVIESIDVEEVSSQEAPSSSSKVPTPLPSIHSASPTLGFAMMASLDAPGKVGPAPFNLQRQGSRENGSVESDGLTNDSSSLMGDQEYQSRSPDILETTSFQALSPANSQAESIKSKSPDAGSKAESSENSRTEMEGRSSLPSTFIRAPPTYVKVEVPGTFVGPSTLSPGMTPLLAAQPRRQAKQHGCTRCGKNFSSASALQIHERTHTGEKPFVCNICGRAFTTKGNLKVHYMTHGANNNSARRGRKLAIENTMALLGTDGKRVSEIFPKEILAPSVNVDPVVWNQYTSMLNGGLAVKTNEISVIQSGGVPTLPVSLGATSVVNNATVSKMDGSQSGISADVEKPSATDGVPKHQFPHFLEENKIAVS
# Technique: universal PBM
# Molecule type: double-stranded DNA, one strand shown
# Medium: in vitro
# Concentration: 600 nM
# Setting: 8-mer, flanks averaged, mean of replicates
# Direction: higher = stronger binding
Sequence,E-score
GAGGTGTA,-0.0643
CGAACCAG,-0.136
CCTGGTAC,-0.177
TCACGAAA,0.192
CAGTAAAC,0.1
CCCACTGC,-0.231
GCCCCTGA,-0.256
AGAGCGAC,-0.171
GTCATTTA,0.192
AGAAGATG,0.104
CCCAGACC,-0.23
AATCTGGA,0.119
AGAATGGG,-0.0923
GGGGCACC,-0.384
CGCATGCG,-0.257
GGATTGAC,-0.0275
ACTGGCGG,-0.127
TCTCAAGA,0.041
ACTGATCA,0.0709

# Set 5
# Target: CEP164, C-terminal peptide (human)
# Technique: DHFR complementation, deep sequencing
# Medium: yeast
# Setting: single substitutions, model-inferred values
# Baseline: wild type
# Direction: higher = weaker binding
# Starting sequence: PDZK1, PDZ domain 2 (human); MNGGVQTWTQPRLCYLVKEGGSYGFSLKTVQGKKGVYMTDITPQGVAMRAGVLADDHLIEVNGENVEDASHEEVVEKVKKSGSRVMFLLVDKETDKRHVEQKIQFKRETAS; partner HNRVKVYRF
Substitution,binding free energy change
V17D,0.291 kcal/mol
Q101V,0.058 kcal/mol
E93Q,-0.1 kcal/mol
I59M,0.272 kcal/mol
G51C,0.19 kcal/mol
E72W,0.41 kcal/mol
R97A,-0.103 kcal/mol
V99A,-0.182 kcal/mol
Q10M,0.178 kcal/mol
G4V,0.0431 kcal/mol
V30H,0.364 kcal/mol
V46L,0.71 kcal/mol
E76A,0.0246 kcal/mol
E93L,-0.137 kcal/mol
G63E,0.341 kcal/mol
I103G,-0.0877 kcal/mol
A110G,-0.0587 kcal/mol
R97E,-0.0547 kcal/mol
M48D,-0.24 kcal/mol
A110N,-0.0455 kcal/mol
V61W,1.61 kcal/mol
V5G,-0.0909 kcal/mol
W8K,-0.046 kcal/mol
S111P,-0.121 kcal/mol
N65M,0.728 kcal/mol
